Measurements collected from several papers.
Lines come from different studies, so protocols differ.

S=C(NCCCc1c[nH]cn1)NCCCN(Cc1ccc(Cl)c(Cl)c1)c1ccc(Br)cn1  concentration (male C57BL/6 mouse, plasma; intraperitoneal, 30 mg/kg, 8 h): 754 ng/mL
CSc1cc(C)nc(SC)c1NC(=O)CN1CCN(CCSc2nc3ccccc3[nH]2)CC1  concentration (mouse Crl:CD1 (ICR) female, cerebrum; intranasal repeated, 162 µg in 7 N HCl, 30 min, 7 days dosing): 32 ng/g
Cc1cc(Oc2cncnc2)cc(C(=O)Nc2ccc(F)cn2)n1  concentration (male Sprague-Dawley rat, brain; oral, 10 mg/kg, 1 h, unbound): 201 nM
O=c1cc2n(cc1O)CCN(Cc1ccccc1)C2  concentration (rat, brain; oral, 100 mg/kg, 4 h, unbound): 564 nM
CO[C@H]1C[C@@H]2CC[C@@H](C)[C@@](O)(O2)C(=O)C(=O)N2CCCC[C@H]2C(=O)O[C@H]([C@H](C)C[C@@H]2CC[C@@H](OCCO)[C@H](OC)C2)CC(=O)[C@H](C)/C=C(\C)[C@@H](O)[C@@H](OC)C(=O)[C@H](C)C[C@H](C)/C=C/C=C/C=C/1C  concentration (healthy adult human, blood; 0.75 mg single dose, 12 h, geometric mean, together with: ritonavir-containing 3D regimen): 8.26 ng/mL
C[C@@H]1CN(Cc2ccc3c(c2)c(=O)c(C(N)=O)cn3-c2ccc(F)cc2)C[C@H](C)O1  concentration (rat, brain; intraperitoneal, 30 mg/kg, 15 min, single dose): 760 nM
N[C@@H](CC(=O)O)Cn1nnc(-c2ccc(Oc3ncc(Cl)cc3F)cc2)n1  concentration (human, blood; 14 days after first dose, all dose groups): ~20 ng/mL
O=c1cc2n(cc1O)CCN(Cc1ccccc1Cl)C2  concentration (rat, brain; oral, 100 mg/kg, 4 h, unbound): 285 nM
Nc1nc2c(ccc3ccccc32)s1  concentration (mouse, plasma; intraperitoneal, 10 mg/kg, 2 h): 5500 nM
Cc1cccc(C)c1CN1CCn2cc(O)c(=O)cc2C1  concentration (rat, plasma; oral, 100 mg/kg, 4 h, unbound): 249 nM
O=c1cc(-c2ccccc2)oc2c(O)c(O)ccc12  concentration (male CD-1 mouse, brain; oral, 50 mg/kg, 4 h): ~7 ng/g
CC(C)NC(=O)c1nn(-c2ccc(Cl)cc2)c(=O)c2c(N)scc12  concentration (female mouse, brain; intraperitoneal, 5 mg/kg, 1 h, single dose): > 2000 nM
O=c1cc2n(cc1O)CCN(Cc1ccc(Cl)cc1Cl)C2  concentration (rat, brain; oral, 100 mg/kg, 4 h, unbound): 430 nM
